Assay results of several laboratories.
Each line is one published result; not all experiments were run side by side. Numbers after ± are the reported error.
MCA2: Metacaspase-2 (MCA2, Trypanosoma brucei brucei, UniProt Q585F3)
Sequence of UniProt Q585F3 (whole entry, looked up): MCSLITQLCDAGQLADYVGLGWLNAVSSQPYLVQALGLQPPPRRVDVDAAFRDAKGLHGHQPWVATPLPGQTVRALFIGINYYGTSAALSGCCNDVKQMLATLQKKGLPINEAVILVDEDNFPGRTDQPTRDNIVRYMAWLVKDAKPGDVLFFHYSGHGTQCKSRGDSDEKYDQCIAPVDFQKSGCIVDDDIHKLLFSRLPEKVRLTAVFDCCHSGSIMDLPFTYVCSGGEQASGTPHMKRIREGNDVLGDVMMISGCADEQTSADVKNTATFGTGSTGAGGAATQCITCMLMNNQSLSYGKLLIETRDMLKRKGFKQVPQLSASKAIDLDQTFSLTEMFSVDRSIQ
blaNDM-1: Metallo-beta-lactamase type 2 (blaNDM-1, Klebsiella pneumoniae, UniProt C7C422)
Sequence of UniProt C7C422 (whole entry, looked up): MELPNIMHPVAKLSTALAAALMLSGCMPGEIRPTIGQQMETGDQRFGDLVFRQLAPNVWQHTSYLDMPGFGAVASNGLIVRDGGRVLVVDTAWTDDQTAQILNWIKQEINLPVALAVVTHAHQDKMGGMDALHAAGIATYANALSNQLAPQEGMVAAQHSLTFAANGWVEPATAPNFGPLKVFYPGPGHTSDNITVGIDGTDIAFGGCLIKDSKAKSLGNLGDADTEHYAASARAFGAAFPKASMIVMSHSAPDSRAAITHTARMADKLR
Oprm1: Mu-type opioid receptor (Oprm1, Rattus norvegicus, UniProt P33535)
Sequence of UniProt P33535 (whole entry, looked up): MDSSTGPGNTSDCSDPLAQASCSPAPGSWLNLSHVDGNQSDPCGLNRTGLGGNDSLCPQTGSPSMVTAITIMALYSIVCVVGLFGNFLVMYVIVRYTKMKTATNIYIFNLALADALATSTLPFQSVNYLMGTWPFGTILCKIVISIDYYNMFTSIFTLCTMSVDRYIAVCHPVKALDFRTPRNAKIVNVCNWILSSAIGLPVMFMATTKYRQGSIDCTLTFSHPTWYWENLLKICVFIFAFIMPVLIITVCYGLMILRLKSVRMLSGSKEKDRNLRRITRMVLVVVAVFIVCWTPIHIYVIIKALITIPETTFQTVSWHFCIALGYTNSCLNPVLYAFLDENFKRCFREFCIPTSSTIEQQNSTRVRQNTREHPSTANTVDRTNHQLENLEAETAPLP
Genome polyprotein NS2B-NS3 protease: Genome polyprotein, NS2B-NS3 protease (ZIKV, UniProt A0A024B7W1)
Sequence of UniProt A0A024B7W1 (whole entry, looked up): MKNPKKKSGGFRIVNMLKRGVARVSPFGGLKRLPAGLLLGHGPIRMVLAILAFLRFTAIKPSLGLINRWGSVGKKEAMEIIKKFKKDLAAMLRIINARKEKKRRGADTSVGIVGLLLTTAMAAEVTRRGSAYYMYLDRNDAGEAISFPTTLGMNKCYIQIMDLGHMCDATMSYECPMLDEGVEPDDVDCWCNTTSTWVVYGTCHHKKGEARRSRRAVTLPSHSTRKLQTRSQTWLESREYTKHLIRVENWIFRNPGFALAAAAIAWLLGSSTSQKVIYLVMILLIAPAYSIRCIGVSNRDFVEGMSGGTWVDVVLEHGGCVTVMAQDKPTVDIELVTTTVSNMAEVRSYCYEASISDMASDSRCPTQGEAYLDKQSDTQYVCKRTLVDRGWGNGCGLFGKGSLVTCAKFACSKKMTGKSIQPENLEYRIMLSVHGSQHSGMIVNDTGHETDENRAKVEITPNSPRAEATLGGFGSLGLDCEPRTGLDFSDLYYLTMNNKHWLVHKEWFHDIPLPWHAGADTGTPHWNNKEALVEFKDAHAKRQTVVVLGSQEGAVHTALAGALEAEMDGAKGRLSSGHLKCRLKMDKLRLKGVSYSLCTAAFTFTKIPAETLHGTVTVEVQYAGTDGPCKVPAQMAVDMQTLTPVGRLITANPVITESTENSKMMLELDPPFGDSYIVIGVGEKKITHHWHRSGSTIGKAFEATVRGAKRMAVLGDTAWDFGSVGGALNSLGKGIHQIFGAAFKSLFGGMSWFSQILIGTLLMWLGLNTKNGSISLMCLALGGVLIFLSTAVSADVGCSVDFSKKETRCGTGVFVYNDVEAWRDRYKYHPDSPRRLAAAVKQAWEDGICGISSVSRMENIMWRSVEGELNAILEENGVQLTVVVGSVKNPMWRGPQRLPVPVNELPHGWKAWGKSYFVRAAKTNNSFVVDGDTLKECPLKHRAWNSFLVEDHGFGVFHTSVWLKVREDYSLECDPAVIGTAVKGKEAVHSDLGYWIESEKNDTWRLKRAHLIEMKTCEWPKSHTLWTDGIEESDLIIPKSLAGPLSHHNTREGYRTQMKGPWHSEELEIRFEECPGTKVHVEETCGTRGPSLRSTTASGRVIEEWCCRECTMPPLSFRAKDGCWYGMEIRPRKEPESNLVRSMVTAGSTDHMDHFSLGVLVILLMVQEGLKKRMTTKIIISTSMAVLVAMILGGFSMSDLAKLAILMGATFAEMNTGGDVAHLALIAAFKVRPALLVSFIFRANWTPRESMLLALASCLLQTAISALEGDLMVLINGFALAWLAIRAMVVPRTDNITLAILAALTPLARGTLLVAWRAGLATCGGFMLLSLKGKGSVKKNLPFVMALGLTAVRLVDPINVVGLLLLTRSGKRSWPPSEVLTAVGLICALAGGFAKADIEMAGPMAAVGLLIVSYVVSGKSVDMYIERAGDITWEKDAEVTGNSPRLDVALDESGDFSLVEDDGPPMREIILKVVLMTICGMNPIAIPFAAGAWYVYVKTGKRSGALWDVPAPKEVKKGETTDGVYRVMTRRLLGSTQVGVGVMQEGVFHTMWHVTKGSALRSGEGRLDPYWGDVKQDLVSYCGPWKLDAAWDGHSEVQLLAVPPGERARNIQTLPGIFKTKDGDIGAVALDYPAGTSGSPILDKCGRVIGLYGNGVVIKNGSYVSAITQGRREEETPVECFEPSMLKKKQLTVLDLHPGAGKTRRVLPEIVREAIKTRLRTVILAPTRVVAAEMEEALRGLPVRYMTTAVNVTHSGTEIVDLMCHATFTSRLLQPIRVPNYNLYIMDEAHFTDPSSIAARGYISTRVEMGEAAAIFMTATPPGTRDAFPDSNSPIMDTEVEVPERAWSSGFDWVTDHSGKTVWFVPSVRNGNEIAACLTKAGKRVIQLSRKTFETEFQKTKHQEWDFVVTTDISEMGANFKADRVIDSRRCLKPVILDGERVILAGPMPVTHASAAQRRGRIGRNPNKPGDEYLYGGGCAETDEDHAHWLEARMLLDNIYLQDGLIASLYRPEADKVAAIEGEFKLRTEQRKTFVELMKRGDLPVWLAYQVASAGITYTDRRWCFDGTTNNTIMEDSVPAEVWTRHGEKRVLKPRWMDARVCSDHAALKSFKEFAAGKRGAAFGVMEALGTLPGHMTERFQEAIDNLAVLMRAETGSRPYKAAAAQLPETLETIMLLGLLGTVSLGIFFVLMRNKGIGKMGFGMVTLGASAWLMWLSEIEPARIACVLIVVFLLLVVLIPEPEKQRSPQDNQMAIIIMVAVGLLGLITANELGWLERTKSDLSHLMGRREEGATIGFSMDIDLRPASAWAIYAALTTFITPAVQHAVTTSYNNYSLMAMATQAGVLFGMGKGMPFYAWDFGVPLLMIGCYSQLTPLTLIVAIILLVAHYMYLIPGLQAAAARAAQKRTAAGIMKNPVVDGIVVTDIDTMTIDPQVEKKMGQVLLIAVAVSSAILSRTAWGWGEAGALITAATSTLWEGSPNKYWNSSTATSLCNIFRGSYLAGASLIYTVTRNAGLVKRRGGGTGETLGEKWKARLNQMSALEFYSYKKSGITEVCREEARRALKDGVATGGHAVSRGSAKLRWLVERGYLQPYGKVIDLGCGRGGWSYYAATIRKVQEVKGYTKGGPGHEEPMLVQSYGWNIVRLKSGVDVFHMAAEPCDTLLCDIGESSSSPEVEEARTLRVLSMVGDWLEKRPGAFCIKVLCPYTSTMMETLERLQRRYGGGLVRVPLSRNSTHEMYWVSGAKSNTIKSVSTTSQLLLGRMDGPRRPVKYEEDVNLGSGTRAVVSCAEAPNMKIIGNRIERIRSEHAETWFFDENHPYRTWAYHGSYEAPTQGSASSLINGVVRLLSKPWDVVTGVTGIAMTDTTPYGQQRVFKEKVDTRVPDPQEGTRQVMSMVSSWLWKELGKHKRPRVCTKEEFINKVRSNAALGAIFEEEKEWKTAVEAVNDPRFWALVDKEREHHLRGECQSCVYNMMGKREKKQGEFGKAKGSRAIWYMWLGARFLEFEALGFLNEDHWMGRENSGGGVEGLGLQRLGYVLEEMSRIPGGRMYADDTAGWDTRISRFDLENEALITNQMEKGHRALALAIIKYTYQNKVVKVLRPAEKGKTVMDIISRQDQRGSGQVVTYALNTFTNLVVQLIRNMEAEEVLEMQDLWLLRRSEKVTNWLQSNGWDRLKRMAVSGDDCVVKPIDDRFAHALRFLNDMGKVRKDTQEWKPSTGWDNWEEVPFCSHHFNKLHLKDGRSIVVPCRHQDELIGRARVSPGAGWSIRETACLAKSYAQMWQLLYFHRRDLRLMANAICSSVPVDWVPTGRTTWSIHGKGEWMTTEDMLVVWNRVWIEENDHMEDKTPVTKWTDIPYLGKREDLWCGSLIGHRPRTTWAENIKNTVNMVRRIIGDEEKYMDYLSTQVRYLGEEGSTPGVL
ADRA2A: Alpha-2A adrenergic receptor (ADRA2A, Homo sapiens, UniProt P08913)
Sequence of UniProt P08913 (whole entry, looked up): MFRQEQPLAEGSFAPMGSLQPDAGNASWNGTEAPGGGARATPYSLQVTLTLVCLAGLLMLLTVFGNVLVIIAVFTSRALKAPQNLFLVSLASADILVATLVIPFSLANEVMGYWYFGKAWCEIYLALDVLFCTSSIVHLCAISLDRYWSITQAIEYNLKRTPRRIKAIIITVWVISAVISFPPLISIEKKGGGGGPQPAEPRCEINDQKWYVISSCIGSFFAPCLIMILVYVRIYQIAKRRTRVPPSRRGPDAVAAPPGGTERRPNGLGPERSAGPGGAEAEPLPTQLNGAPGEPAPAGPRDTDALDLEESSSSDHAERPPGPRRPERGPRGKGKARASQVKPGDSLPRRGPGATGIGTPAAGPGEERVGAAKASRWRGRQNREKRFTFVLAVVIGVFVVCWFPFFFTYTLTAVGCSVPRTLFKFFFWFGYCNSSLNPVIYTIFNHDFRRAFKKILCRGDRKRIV
Sequence of UniProt P26885 (whole entry, looked up): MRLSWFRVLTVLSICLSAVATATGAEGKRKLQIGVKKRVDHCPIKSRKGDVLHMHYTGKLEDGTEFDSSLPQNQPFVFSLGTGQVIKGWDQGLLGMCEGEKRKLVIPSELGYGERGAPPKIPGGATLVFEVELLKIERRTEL

COc1ccc(CC[C@H]2OC(=O)[C@@H]3CCCCN3C(=O)C(=O)C(C)(C)COC(=O)/C=C/CCN(C)C(=O)[C@H](CC(C)C)N(C)C(=O)[C@@H]3CCCN3C(=O)[C@H](Cc3ccccc3)N(C)C(=O)[C@H](c3ccccc3)NC(=O)CCC(=O)Nc3cccc2c3)cc1OC
Ki (Peptidyl-prolyl cis-trans isomerase FKBP2 (Homo sapiens, UniProt P26885); enzyme activity, inhibitor): > 5000 nM

O=C1c2ccccc2CCCN1CCCCN1CCN(c2cccc(Cl)c2Cl)CC1
Ki (5-hydroxytryptamine receptor 1E (HTR1E, Homo sapiens, UniProt P28566); ligand displacement, radioligand): 4370 nM

CC(=O)N[C@@H](CC(C)C)C(=O)N[C@@H](CC(C)C)C(=O)N[C@@H](CC(C)C)C(=O)N[C@@H](CC(C)C)C(=O)N[C@@H](CC(C)C)C(=O)N[C@@H](CC(C)C)C(=O)N[C@@H](CCCNC(=N)N)C(=O)N[C@H](C(=O)N[C@@H](CCCCN)C(=O)N[C@@H](CCCNC(=N)N)C(N)=O)C(C)C
Ki (Neuroendocrine convertase 2 (Homo sapiens, UniProt P16519); enzyme activity, inhibitor): 1300 nM

CCN(N=Cc1cnc2ccc(Br)cn12)S(=O)(=O)c1cc([N+](=O)[O-])ccc1C
Ki (Phosphatidylinositol 4,5-bisphosphate 3-kinase catalytic subunit alpha isoform (PIK3CA, Homo sapiens, UniProt P42336); enzyme activity, inhibitor; competitive model, with: PI substrate): 6.9 ± 2.8 nM

C[C@H](NC(=O)[C@H](C)NC(=O)[C@H](CCCCN)NC(=O)c1ccccc1N)C(=O)N[C@@H](CO)C(=O)N[C@@H](CO)C(=O)N[C@@H](C)C(=O)N[C@@H](CCC(N)=O)C(=O)NCCNc1ccc([N+](=O)[O-])cc1[N+](=O)[O-]
Ki (MCA2; enzyme activity, competitive inhibitor; Trypanosoma brucei; with: Z-FR-AMC substrate): 7500 nM

CC[C@H](C)[C@@H]1NC(=O)[C@@H]2CCCN2C(=O)[C@@H](CS)NC(=O)[C@H](CC(C)C)NC(=O)[C@@H](CCCNC(=N)N)NC(=O)[C@@H](CCCNC(=N)N)NC(=O)[C@H](CCC(=O)O)NC(=O)[C@@H]2CCCN2C1=O
Ki (blaNDM-1; enzyme activity, inhibitor; with: nitrocefin 1.5 µM): 1010 nM

Cc1cc(O)cc(C)c1CCC(=O)N[C@@H]1C/C=C/CC[C@@H](C(N)=O)NC(=O)[C@H](Cc2ccccc2)NC(=O)[C@H](Cc2ccccc2)NC1=O
Ki (Oprm1; ligand displacement, radioligand; cell membranes): 16.7 nM

CC(C)CCNC(=O)[C@H](CCCCN)NC(=O)[C@H](CCCCN)NC(=O)Cc1cccc(CNC(=O)[C@@H](C)NC(=N)N)c1
Ki (Genome polyprotein NS2B-NS3 protease; inhibitor; Zika virus): 1640 ± 70 nM

C[C@H](NC(=O)[C@H](CC(=O)O)NC(=O)c1ccccc1N)C(=O)N[C@@H](CCCNC(=N)N)C(=O)N[C@@H](CO)C(=O)N[C@@H](CO)C(=O)N[C@@H](C)C(=O)N[C@@H](CCC(N)=O)C(=O)NCCNc1ccc([N+](=O)[O-])cc1[N+](=O)[O-]
Ki (MCA2; enzyme activity, competitive inhibitor; Trypanosoma brucei; with: Z-FR-AMC substrate): 4200 nM

Cc1ccc(OS(=O)(=O)F)c(C(=O)Nc2ccncc2)c1
Ki (Uncharacterized hydrolase SAUSA300_2518 (Staphylococcus aureus, UniProt Q2FDS6); enzyme activity, inhibitor): 2340 nM

Cc1cc(O)cc(C)c1C[C@H](N)C(=O)N[C@H](CCCNC(=N)N)C(=O)N[C@@H](Cc1ccccc1)C(=O)N[C@@H](CCCCN)C(=O)N[C@H]1CC[C@H](NC(=O)[C@H](Cc2ccccc2)NC(=O)[C@H](CC2CCCCC2)NC[C@@H]2Cc3ccccc3CN2C(=O)[C@@H](N)Cc2ccc(O)cc2)CC1
Ki (Oprm1; ligand displacement, radioligand; cell membranes): 7.87 nM

Cc1cc(O)cc(C)c1C[C@H](N)C(=O)N[C@H](CCCNC(=N)N)C(=O)N[C@@H](Cc1ccccc1)C(=O)N[C@@H](CCCCN)C(=O)NCCCCCC(=O)N[C@@H](CCCCNC(=O)CN1CCN(CC(=O)O)CCN(CC(=O)O)CCN(CC(=O)O)CC1)C(N)=O
Ki (Delta-type opioid receptor (Oprd1, Mus musculus, UniProt P32300); ligand displacement, radioligand; cell membranes): 43.1 nM

C[C@H](NC(=O)[C@H](CCCCN)NC(=O)c1ccccc1N)C(=O)N[C@@H](CC(=O)O)C(=O)N[C@@H](CO)C(=O)N[C@@H](CO)C(=O)N[C@@H](C)C(=O)N[C@@H](CCC(N)=O)C(=O)NCCNc1ccc([N+](=O)[O-])cc1[N+](=O)[O-]
Ki (MCA2; enzyme activity, competitive inhibitor; Trypanosoma brucei; with: Z-FR-AMC substrate): 2900 nM

CC[C@H](C)[C@@H]1NC(=O)[C@@H]2CCCN2C(=O)[C@@H](CS)NC(=O)[C@H](CC(C)C)NC(=O)[C@@H](CCCNC(=N)N)NC(=O)[C@@H](CCCNC(=N)N)NC(=O)C(C)(C)NC(=O)[C@@H]2CCCN2C1=O
Ki (blaNDM-1; enzyme activity, inhibitor; with: nitrocefin 1.5 µM): 1940 nM

C[C@H](NC(=O)[C@H](CCCCN)NC(=O)c1ccccc1N)C(=O)NCC(=O)N[C@@H](CO)C(=O)N[C@@H](CO)C(=O)N[C@@H](C)C(=O)N[C@@H](CCC(N)=O)C(=O)NCCNc1ccc([N+](=O)[O-])cc1[N+](=O)[O-]
Ki (MCA2; enzyme activity, competitive inhibitor; Trypanosoma brucei; with: Z-FR-AMC substrate): 17000 nM

CC(C)C[C@H](NC(=O)[C@H](CCCCN)NC(=O)[C@H](CCCCN)NC(=O)Cc1cccc(CNC(=O)[C@@H](C)NC(=N)N)c1)B(O)O
Ki (Genome polyprotein NS2B-NS3 protease; inhibitor; Zika virus): 8 ± 0.2 nM

Cc1cc(O)cc(C)c1C[C@H](N)C(=O)N[C@H](CCCNC(=N)N)C(=O)N[C@@H](Cc1ccccc1)C(=O)N(C)CC(=O)N(C)Cc1cc(C(F)(F)F)cc(C(F)(F)F)c1
Ki (Delta-type opioid receptor (OPRD1, Homo sapiens, UniProt P41143, E323K)): 6.19 ± 0.56 nM

NC(=O)C[C@H]1NC(=O)[C@@H](CCC(=O)O)NC(=O)[C@H](CCC(=O)O)NC(=O)[C@@H]2CCCN2C(=O)[C@H](C(c2ccccc2)c2ccccc2)NC(=O)[C@@H]2CCCN2C(=O)[C@H]2CCCN2C(=O)[C@H](Cc2c[nH]cn2)NC1=O
Ki (blaNDM-1; enzyme activity, inhibitor; with: nitrocefin 1.5 µM): 242000 nM

CSCC[C@H](NC(=O)[C@H](C)NC(=O)[C@H](CCCCN)NC(=O)c1ccccc1N)C(=O)N[C@@H](CO)C(=O)N[C@@H](CO)C(=O)N[C@@H](C)C(=O)N[C@@H](CCC(N)=O)C(=O)NCCNc1ccc([N+](=O)[O-])cc1[N+](=O)[O-]
Ki (MCA2; enzyme activity, competitive inhibitor; Trypanosoma brucei; with: Z-FR-AMC substrate): 12400 nM

Clc1ccc2sc(C3CCNCC3)nc2c1
Ki (Sodium-dependent serotonin transporter (Slc6a4, Rattus norvegicus, UniProt P31652); ligand displacement, radioligand): 336 nM

CN(C)[C@H](CNC(=O)/C=C/c1cccc2ccccc12)Cc1ccc(O)cc1
Ki (ADRA2A; cell-free assay): 1800 nM

CC[C@H](C)[C@@H]1NC(=O)[C@@H](CCCCN)NC(=O)[C@H](CC(=O)O)NC(=O)[C@H]2CCCN2C(=O)[C@@H](CCC(N)=O)NC(=O)[C@H](C(C)C)NC(=O)[C@@H]2CCCN2C(=O)[C@@H](CS)NC1=O
Ki (blaNDM-1; enzyme activity, inhibitor; with: nitrocefin 1.5 µM): 10200 nM

CC(C)C[C@H](NC(=O)[C@H](CCCCN)NC(=O)[C@H](CCCCN)NC(=O)Cc1cccc(CNC(=O)[C@@H](C)NC(=N)N)c1)C(=O)O
Ki (Genome polyprotein NS2B-NS3 protease; inhibitor; Zika virus): 37100 ± 500 nM

CC(C)[C@H](NC(=O)[C@H](C)NC(=O)[C@H](CCCCN)NC(=O)c1ccccc1N)C(=O)N[C@@H](CO)C(=O)N[C@@H](CO)C(=O)N[C@@H](C)C(=O)N[C@@H](CCC(N)=O)C(=O)NCCNc1ccc([N+](=O)[O-])cc1[N+](=O)[O-]
Ki (MCA2; enzyme activity, competitive inhibitor; Trypanosoma brucei; with: Z-FR-AMC substrate): 8400 nM

CSCC[C@H](N)C(=O)N[C@@H](C)C(=O)N[C@H](C(=O)N[C@@H](CCCNC(=N)N)C(=O)N[C@@H](CCC(N)=O)C(=O)N[C@@H](C)C(=O)N[C@@H](CC(C)C)C(=O)NCC(=O)N[C@@H](CCCNC(=N)N)C(=O)NCC(=O)N[C@@H](CC(C)C)C(=O)N[C@@H](CCC(N)=O)C(=O)N[C@@H](CC(C)C)C(=O)NCC(=O)N[C@@H](CCCNC(=N)N)C(=O)N[C@@H](C)C(=O)N[C@@H](CC(C)C)C(=O)N[C@@H](CC(C)C)C(=O)N[C@@H](CC(C)C)C(=O)N[C@@H](CCCNC(=N)N)C(=O)N[C@@H](Cc1ccccc1)C(=O)N[C@H](C(=O)NCC(=O)N[C@@H](CCCCN)C(=O)N1CCC[C@H]1C(=O)NCC(=O)N[C@@H](CCCNC(=N)N)C(=O)N[C@@H](C)C(=O)N[C@@H](Cc1ccc(O)cc1)C(=O)NCC(=O)N[C@@H](CC(C)C)C(=O)NCC(=O)N[C@@H](CCCNC(=N)N)C(=O)N1CCC[C@H]1C(=O)NCC(=O)N1CCC[C@H]1C(=O)N[C@@H](C)C(=O)N[C@@H](C)C(=O)NCC(=O)N[C@@H](CS)C(=O)N[C@H](C(=O)N[C@@H](CCCNC(=N)N)C(=O)NCC(=O)N[C@@H](CCC(=O)O)C(=O)N[C@@H](CCCNC(=N)N)C(N)=O)C(C)C)[C@@H](C)O)C(C)C
Ki (PMPCB/PMPCA (Homo sapiens, UniProt O75439+Q10713); inhibitor, LC-MS; room temperature, with: MDH2 1-24 peptide substrate): 26.6 ± 4.7 nM

CC(C)C[C@@H]1NC(=O)[C@@H](CCCNC(=N)N)NC(=O)[C@@H]([C@H](C)O)NC(=O)[C@H](CCC(=O)O)NC(=O)[C@@H]2CCCN2C(=O)[C@H](CC(C)C)NC(=O)[C@@H]2CCCN2C(=O)[C@@H](CS)NC1=O
Ki (blaNDM-1; enzyme activity, inhibitor; with: nitrocefin 1.5 µM): 45000 nM

COc1cc2c(cc1O)C(CCc1ccc(Cl)cc1)N(C)CC2 (stereo not drawn)
Ki (ADRA2A; cell-free assay, radioligand): 340 nM

Excerpt of the above:
CN(C)[C@H](CNC(=O)/C=C/c1cccc2ccccc12)Cc1ccc(O)cc1
Ki (ADRA2A; cell-free assay): 1800 nM

CC[C@H](C)[C@@H]1NC(=O)[C@@H](CCCCN)NC(=O)[C@H](CC(=O)O)NC(=O)[C@H]2CCCN2C(=O)[C@@H](CCC(N)=O)NC(=O)[C@H](C(C)C)NC(=O)[C@@H]2CCCN2C(=O)[C@@H](CS)NC1=O
Ki (blaNDM-1; enzyme activity, inhibitor; with: nitrocefin 1.5 µM): 10200 nM

CC(C)C[C@H](NC(=O)[C@H](CCCCN)NC(=O)[C@H](CCCCN)NC(=O)Cc1cccc(CNC(=O)[C@@H](C)NC(=N)N)c1)C(=O)O
Ki (Genome polyprotein NS2B-NS3 protease; inhibitor; Zika virus): 37100 ± 500 nM
